# Measurements of several laboratories.
# Several values in a cell are separate wells, animals, samples, runs or records. ± marks the error that the study gave.
# Glutamate NMDA receptor; Grin1/Grin2c S688A: Glutamate NMDA receptor; Grin1/Grin2c (Rattus norvegicus, UniProt P35439+Q00961, S688A)
# AHR: Aryl hydrocarbon receptor (AHR, Homo sapiens, UniProt P35869)
# GABA-A receptor; alpha-1/beta-2/gamma-2: GABA-A receptor; alpha-1/beta-2/gamma-2 (Rattus norvegicus, UniProt P18508+P62813+P63138)
# Neuromedin-U receptor 2: Neuromedin-U receptor 2 (Mus musculus, UniProt Q8BZ39)
# CHRM1: Muscarinic acetylcholine receptor M1 (CHRM1, Homo sapiens, UniProt P11229)
Compound,target,test,system,setting,scale,EC50
CCc1ccccc1-c1ccc(C(=O)NC[C@@H](N)C(=O)O)s1,Glutamate NMDA receptor; Grin1/Grin2c S688A,"receptor activation, positive modulator",rat,together with: glutamate 300 µM,,2 nM
Cc1ccc2ccc3ccc(C)cc3c2c1,AHR,"reporter gene, agonist, yeast LacZ reporter",Saccharomyces cerevisiae,"18 h, 30 °C",relative to: 50% of 100 µM phenanthrene activity,6460 nM
NC[C@H](O)c1ccc(O)c(O)c1,"ADRA2B (Homo sapiens, UniProt P18089)",AP-TGFα shedding,HEK293A,,,4.7 nM
CC1=C(C(=O)OC(C)C)C(c2ccccc2Br)C2=C(CC(C)(C)CC2=O)N1 (centres unmarked),"ADGRG1 (Homo sapiens, UniProt Q9Y653)","G13 activation, agonist, GTPγS binding, reconstitution",,,,2950 ± 410 nM
O=C(O)C1=CCNCC1,GABA-A receptor; alpha-1/beta-2/gamma-2,"chloride current, agonist, whole-cell patch clamp",HEK293 expressing GABAA,30 s,,9600 nM
CC(C)C[C@H](NC(=O)[C@H](Cc1ccccc1)NC(=O)[C@@H](N)Cc1ccc(O)cc1)C(=O)N[C@@H](Cc1ccccc1)C(=O)N[C@@H](CCCNC(=N)N)C(=O)N1CCC[C@H]1C(=O)N[C@@H](CCCNC(=N)N)C(=O)N[C@@H](CC(N)=O)C(N)=O,Neuromedin-U receptor 2,"Gq signalling, agonist, IP-1 accumulation",,from mean pEC50,,69.2 nM
CCOC(=O)c1cccc(NC(=O)c2sccc2S(=O)(=O)N(C)c2cccc(OCC)c2)c1,"NR1H3 (Homo sapiens, UniProt Q13133)",,,,,> 25000 nM
CCN(C(=O)C1CCN(S(=O)(=O)c2ccc3[nH]ncc3c2)CC1)[C@H](C)c1ccccc1,CHRM1,"calcium mobilization, positive allosteric modulator",CHO cells expressing CHRM1,,,4800 nM
CC(C)C[C@H](NC(=O)[C@H](Cc1ccccc1)NC(=O)[C@H](Cc1ccc(O)cc1)NC(=O)CNC(=O)[C@H](CCCNC(=N)N)NC(=O)[C@H](CO)NC(=O)[C@H](CCC(N)=O)NC(=O)[C@H](CO)NC(=O)[C@H](C)NC(=O)[C@H](Cc1ccccc1)NC(=O)[C@@H]1CCCN1C(=O)[C@H](CO)NC(=O)[C@H](CCC(N)=O)NC(=O)[C@H](Cc1ccccc1)NC(=O)[C@H](CCC(=O)O)NC(=O)[C@H](CCC(=O)O)NC(=O)[C@H](CC(=O)O)NC(=O)[C@@H](NC(=O)[C@H](CCCNC(=N)N)NC(=O)[C@@H](N)Cc1ccccc1)C(C)C)C(=O)N[C@@H](Cc1ccccc1)C(=O)N[C@@H](CCCNC(=N)N)C(=O)N1CCC[C@H]1C(=O)N[C@@H](CCCNC(=N)N)C(=O)N[C@@H](CC(N)=O)C(N)=O,Neuromedin-U receptor 2,"β-arrestin recruitment, agonist",,,,0.33 nM
Cn1cc2c(C(=O)O)ccc(NS(=O)(=O)c3ccc(OCC4CCC4)c(Cl)c3)c2n1,CHRM1,antagonist,,,,> 10000 nM
N[C@H](CNC(=O)c1cc(Br)c(-c2ccccc2F)s1)C(=O)O,Glutamate NMDA receptor; Grin1/Grin2c S688A,"receptor activation, positive modulator",rat,together with: glutamate 300 µM,,4 nM
O=C1Nc2c(ccc(Cl)c2Cl)C1=NO,"KCNN4/CALM1 (Homo sapiens, UniProt O15554+P0DP23)","ion current, activator, whole-cell patch clamp",HEK293,together with: 250 nM free calcium,,74 nM
COc1cc(Nc2ncc3c(n2)-c2ccc(Cl)cc2C(c2c(F)cccc2OC)=NC3)ccc1C(=O)NCCOCCOCCNC(=O)COc1cccc2c1C(=O)N(C1CCC(=O)NC1=O)C2=O (centres unmarked),"Aurora kinase A (AURKA, Homo sapiens, UniProt O14965)","binding, kinobead competition",MV4-11 cell lysate,,,321 nM
O=S(=O)(O)C1CCNCC1,GABA-A receptor; alpha-1/beta-2/gamma-2,"membrane potential, agonist, QP-DHM fluorescence",HEK293 expressing GABAA,,,3700 nM
Nc1nc2c(ncn2[C@@H]2O[C@@H]3COP(=O)(O)O[C@H]3[C@H]2O)c(=O)[nH]1,"Cone cGMP-gated channel (Morone saxatilis, UniProt Q3I0N1+Q3I0N2)","channel current, agonist, suction electrode",Morone saxatilis cone outer segments,together with: 0.5 µM Ca2+,,171000 nM and 214000 nM
CCCCCCCC/C=C\CCCCCCCC(=O)NCCc1ccc(O)c(O)c1,"Trpv1 (Mus musculus, UniProt Q704Y3, Y555F)","ion current, agonist, whole-cell patch clamp",,"24 °C, Y555F, +80 mV",,650 ± 610 nM
Nc1ncnc2c1ncn2[C@@H]1O[C@H](COP(=O)(O)OP(=O)(O)OC[C@H]2OC(O)[C@H](O)[C@@H]2O)[C@@H](O)[C@H]1O (some centres unmarked),"trpm2 (Danio rerio, UniProt A0A0R4IMY7)","channel activation, activator, inside-out patch clamp",,"together with: 125 µM Ca2+, 2.5 µM diC8-PIP2",,56 ± 4 nM
CCCCC[C@H](O)/C=C/[C@H]1[C@H](O)CC(=O)[C@@H]1C/C=C\CCCC(=O)O,"PTGER1 (Homo sapiens, UniProt P34995, G87A)","IP1 accumulation, agonist",AD293,EP1 G87A mutant,,72.1 nM
CCCCNc1c(C(=O)OCC)c(C)nc2c1cnn2CC,GABA-A receptor; alpha-1/beta-2/gamma-2,"membrane potential, agonist, QP-DHM fluorescence",HEK293 expressing GABAA,,,9900 nM
CCn1c(-c2nc3ccc(C(=O)N4CCCC(N)C4)cc3n2C)cc2ccccc21 (centres unmarked),AHR,"agonist, FRET",,,,> 100000 nM

# Some of these lines once more:
Compound,target,test,system,setting,scale,EC50
CC1=C(C(=O)OC(C)C)C(c2ccccc2Br)C2=C(CC(C)(C)CC2=O)N1 (centres unmarked),"ADGRG1 (Homo sapiens, UniProt Q9Y653)","G13 activation, agonist, GTPγS binding, reconstitution",,,,2950 ± 410 nM
O=C(O)C1=CCNCC1,GABA-A receptor; alpha-1/beta-2/gamma-2,"chloride current, agonist, whole-cell patch clamp",HEK293 expressing GABAA,30 s,,9600 nM
CC(C)C[C@H](NC(=O)[C@H](Cc1ccccc1)NC(=O)[C@@H](N)Cc1ccc(O)cc1)C(=O)N[C@@H](Cc1ccccc1)C(=O)N[C@@H](CCCNC(=N)N)C(=O)N1CCC[C@H]1C(=O)N[C@@H](CCCNC(=N)N)C(=O)N[C@@H](CC(N)=O)C(N)=O,Neuromedin-U receptor 2,"Gq signalling, agonist, IP-1 accumulation",,from mean pEC50,,69.2 nM
